{"data": "Measurements from different studies", "cell line": "HeLa", "note": "Values joined by “and” are separate records of one study, mostly repeats; a detail may differ."}
{"SMILES": "CCCCCCCCCCCCCC(=S)NCCCC[C@H](NS(C)(=O)=O)C(=O)N[C@@H](C)C(=O)N[C@@H](CCCNC(=N)N)C(N)=O", "assay": "cell growth or viability, MTT", "conditions": "72 h", "measurement": "EC50", "result": "19400 to 29300 nM"}
{"SMILES": "CSc1cc(C)[nH]c(=O)c1CNC(=O)c1cc(Cl)c2c(c1C)OC(C)(C1CCC(N(C)C)CC1)O2 (stereo not shown)", "assay": "histone methylation reduction, AlphaLISA, refers to: H3K27me3", "conditions": "72 h", "measurement": "EC50", "result": "0.65 nM"}
{"SMILES": "CCC(=CCc1c(O)cc2c(c1O)C(=O)CC(c1ccc(OC)c(O)c1)O2)CC (stereo not shown)", "assay": "cell growth or viability, MTT", "conditions": "1.563 µM, 48 h", "measurement": "inhibition", "result": "4.14%"}
{"SMILES": "CCCCCCCCCCCCNC(=S)NCCCC[C@H](NC(=O)OCc1ccccc1)C(=O)N[C@H](C)C(=O)N[C@@H](CCCNC(=N)N)C(N)=O", "assay": "cell growth or viability, MTT", "conditions": "72 h", "measurement": "EC50", "result": "25800 to 34900 nM"}
{"SMILES": "COc1cccc(CNC[C@](O)(COCc2ccccc2)[C@@H]2CC[C@@H](C)C[C@H]2OCc2ccccc2)c1", "assay": "cell growth or viability, MTT", "conditions": "30 µM, 72 h", "measurement": "inhibition", "result": "99.2%"}
{"SMILES": "CCCC[N+]1=c2cc3c4cc2[O][Mn-2]1(=[C]=O)(=[C]=O)(=[C]=O)[n+]1ccc(cc1)C(=O)Nc1ccccc1NC(=O)c1cc[n+](cc1)[Mn-2](=[C]=O)(=[C]=O)(=[C]=O)([O]3)[N+]=4CCCC", "assay": "MTT", "conditions": "50 µM, 48 h, photolysed compound", "measurement": "viability reduction", "result": "76%"}
{"SMILES": "Cc1cc(=O)oc2cc(OCCCCCCSC#N)ccc12", "assay": "cell growth or viability, SRB", "measurement": "GI50", "result": "2700 nM"}
{"SMILES": "CN1CC(COc2cccc3c(NCc4ccco4)nc(Cl)nc23)OC1=O (stereo not shown)", "assay": "splicing reporter, refers to: GLA", "conditions": "10 µM, 18 h", "measurement": "GFP/RFP ratio", "result": 3.4}
{"SMILES": "CCC(=CCc1c(O)cc2c(c1O)C(=O)CC(c1ccc(OC)cc1O)O2)CC (stereo not shown)", "assay": "cell growth or viability, MTT", "conditions": "6.25 µM, 48 h", "measurement": "inhibition", "result": "13%"}
{"SMILES": "CCCCCCc1cccc(C(O)CC(CO)NC(=O)CCCCCCCCCCNC(C)=O)c1 (stereo not shown)", "assay": "CERT activity, HPLC-MS/MS lipidomics, refers to: ceramide 20", "conditions": "1 µM, 24 h, not cell-number normalised", "measurement": "ceramide level", "result": "75 pmol/sample and 95 pmol/sample and 103 pmol/sample"}
{"SMILES": "O=C1NCC(COc2nccc3c(NCc4ccccc4)cc(Cl)nc23)O1 (stereo not shown)", "assay": "splicing reporter, refers to: GLA", "conditions": "10 µM, 18 h", "measurement": "GFP/RFP ratio", "result": 4.89}
{"SMILES": "COc1ccc(CNC[C@@](O)(COCc2ccccc2)[C@@H]2CC[C@@H](C)C[C@H]2OCc2ccccc2)cc1", "assay": "cell growth or viability, MTT", "conditions": "30 µM, 72 h", "measurement": "inhibition", "result": "95.4%"}
{"SMILES": "CCCCCCCCCCCC(=O)N[C@@H](CO)C[C@@H](O)c1cccc(CCCCCC)c1", "assay": "CERT activity, HPLC-MS/MS lipidomics, refers to: ceramide 24", "conditions": "1 µM, 24 h, not cell-number normalised", "measurement": "ceramide level", "result": "13500 pmol/sample and 15500 pmol/sample and 12100 pmol/sample"}
{"SMILES": "CCC(=CCc1c(O)cc2c(c1O)C(=O)CC(c1cc(OC)ccc1O)O2)CC (stereo not shown)", "assay": "cell growth or viability, MTT", "conditions": "3.125 µM, 48 h", "measurement": "inhibition", "result": "2.11%"}
{"SMILES": "O=C(Nc1cc(OCCN2CCCC2)c2ccccc2n1)c1cccc(C(=O)Nc2cc(OCCN3CCCC3)c3ccccc3n2)n1", "assay": "cell viability, CellTiter-Glo", "conditions": "72 h", "how to read": "reference: IC50 HeLa over WI-38", "measurement": "selectivity ratio", "result": 1}
{"SMILES": "C[C@@H]1CC[C@@H]([C@](O)(CNCc2cccc(F)c2)COCc2ccccc2)[C@H](OCc2ccccc2)C1", "assay": "cell growth or viability, MTT", "conditions": "30 µM, 72 h", "measurement": "inhibition", "result": "96.6%"}
{"SMILES": "CCC(=CCc1c(O)cc2c(c1O)C(=O)CC(c1ccccc1O)O2)CC (stereo not shown)", "assay": "cell growth or viability, MTT", "conditions": "3.75 µM, 48 h", "measurement": "inhibition", "result": "4.49%"}
{"SMILES": "C[C@@H]1CC[C@@H]([C@@](O)(COCc2ccccc2)Cn2cnc3ccccc32)[C@H](OCc2ccccc2)C1", "assay": "cell growth or viability, MTT", "conditions": "10 µM, 72 h", "measurement": "inhibition", "result": "68.8%"}
{"SMILES": "O=[C]=[Mn-2]12(=[C]=O)(=[C]=O)[O]c3cc4c(cc3=[N+]1CCc1ccccc1)[O][Mn-2](=[C]=O)(=[C]=O)(=[C]=O)([N+]=4CCc1ccccc1)[n+]1ccc(cc1)C(=O)Nc1ccccc1NC(=O)c1cc[n+]2cc1", "assay": "MTT", "conditions": "50 µM, 48 h, photolysed compound", "measurement": "viability reduction", "result": "96%"}
{"SMILES": "CCC(=CCc1c(O)cc2c(c1O)C(=O)CC(c1cccc(OC)c1O)O2)CC (stereo not shown)", "assay": "cell growth or viability, MTT", "conditions": "3.125 µM, 48 h", "measurement": "inhibition", "result": "0.219%"}
{"SMILES": "C[C@@H]1CC[C@@H]([C@](O)(CNCc2ccc(F)cc2)COCc2ccccc2)[C@H](OCc2ccccc2)C1", "assay": "cell growth or viability, MTT", "conditions": "10 µM, 72 h", "measurement": "inhibition", "result": "53.7%"}
{"SMILES": "CN(C)c1ccc(-n2cc(COC(=O)[C@@]3(C)C=C(C(=O)OC(C)(C)C)C(=O)CC3)nn2)cc1", "assay": "quantitative western blot", "conditions": "concentration not given, 0 (unit not given), together with: EGF", "measurement": "pERK/ERK ratio", "result": 0.0853}
{"SMILES": "CSc1cc(C)[nH]c(=O)c1CN1CCc2c(Cl)c3c(c(C)c2C1=O)OC(C)(C1CCC(N(C)C)CC1)O3 (stereo not shown)", "assay": "histone methylation reduction, AlphaLISA, refers to: H3K27me3", "conditions": "72 h", "measurement": "EC50", "result": "0.99 nM"}
{"SMILES": "C[C@@H]1CC[C@@H]([C@](O)(CNCc2ccccc2F)COCc2ccccc2)[C@H](OCc2ccccc2)C1", "assay": "cell growth or viability, MTT", "conditions": "30 µM, 72 h", "measurement": "inhibition", "result": "98.9%"}
{"SMILES": "CC(C)(C)c1ccc([C@H](O)C[C@H](CO)NC(=O)CCCCCOc2ccc3ccccc3c2)cc1", "assay": "CERT activity, HPLC-MS/MS lipidomics, refers to: lactosylceramide 24:1", "conditions": "1 µM, 24 h, not cell-number normalised", "measurement": "lactosylceramide level", "result": "5910 pmol/sample and 3180 pmol/sample and 6200 pmol/sample"}
{"SMILES": "CCN(C(=O)c1cc(F)ccc1Oc1nncnc1N1CCC2(C1)CN([C@H](CCCN(C)CCOC)C(C)C)C2)C(C)C", "assay": "cell growth or viability", "conditions": "7 days", "measurement": "GI50", "result": "> 10000 nM"}
{"SMILES": "CCC(=CCc1c(O)cc2c(c1O)C(=O)CC(c1c(O)cccc1OC)O2)CC (stereo not shown)", "assay": "cell growth or viability, MTT", "conditions": "1.563 µM, 48 h", "measurement": "inhibition", "result": "2.73%"}
{"SMILES": "C[C@@H]1CC[C@@H]([C@@](O)(CNCc2ccc(F)cc2)COCc2ccc(F)cc2)[C@H](OCc2ccc(F)cc2)C1", "assay": "cell growth or viability, MTT", "conditions": "10 µM, 72 h", "measurement": "inhibition", "result": "93.4%"}
{"SMILES": "CCCCCCc1cccc([C@H](O)C[C@H](CO)NC(=O)CCCCCOc2ccc3ccccc3c2)c1", "assay": "CERT activity, HPLC-MS/MS lipidomics, refers to: ceramide 22", "conditions": "1 µM, 24 h, not cell-number normalised", "measurement": "ceramide level", "result": "1890 pmol/sample and 1950 pmol/sample and 1200 pmol/sample"}
{"SMILES": "CCC(=CCc1c(O)cc2c(c1O)C(=O)CC(c1cccc(O)c1)O2)CC (stereo not shown)", "assay": "cell growth or viability, MTT", "conditions": "1.563 µM, 48 h", "measurement": "inhibition", "result": "6.73%"}
{"SMILES": "COc1ccccc1CNC[C@](O)(COCc1ccccc1)[C@@H]1CC[C@@H](C)C[C@H]1OCc1ccccc1", "assay": "cell growth or viability, MTT", "conditions": "30 µM, 72 h", "measurement": "inhibition", "result": "97.6%"}
{"note": "A few entries again:"}
{"SMILES": "CCCCCCCCCCCC(=O)N[C@@H](CO)C[C@@H](O)c1cccc(CCCCCC)c1", "assay": "CERT activity, HPLC-MS/MS lipidomics, refers to: ceramide 24", "conditions": "1 µM, 24 h, not cell-number normalised", "measurement": "ceramide level", "result": "13500 pmol/sample and 15500 pmol/sample and 12100 pmol/sample"}
{"SMILES": "CCCC[N+]1=c2cc3c4cc2[O][Mn-2]1(=[C]=O)(=[C]=O)(=[C]=O)[n+]1ccc(cc1)C(=O)Nc1ccccc1NC(=O)c1cc[n+](cc1)[Mn-2](=[C]=O)(=[C]=O)(=[C]=O)([O]3)[N+]=4CCCC", "assay": "MTT", "conditions": "50 µM, 48 h, photolysed compound", "measurement": "viability reduction", "result": "76%"}
